Measurements pooled from the literature.
Each line is one published result; not all experiments were run side by side.

SMILES	organism	assay	test system	setting	EC50
C[C@@H](CO)CCC[C@@H](C)[C@H]1CC[C@H]2[C@@H]3CC=C4C[C@@H](O)CC[C@]4(C)[C@H]3CC[C@]12C	Human rotavirus	–	Caco-2, DS-1	–	450 nM
COC(=O)N[C@H](C(=O)N1CCC[C@H]1c1ncc(-c2ccc(-c3ccc(-c4cnc([C@@H]5CCCN5C(=O)[C@@H](NC(=O)OC)C(C)C)[nH]4)cc3)cc2)[nH]1)C(C)C	human coronavirus	viral replication	MRC5	–	> 29000 nM
Cc1cc(OC(C)C)ccc1C(=O)C(C)(C)NC(=O)c1sccc1C	Botrytis squamosa	mycelial growth	PSA medium	20 °C, suspension concentrate 400 g/L	0.74 µg/mL
CC(C)(C)CNc1nc(-c2cccs2)nc(Cl)c1-c1c(F)cc([N+](=O)[O-])cc1F	Schistosoma mansoni	worm motility	adult worms ex vivo	24 h	< 300 nM
CCOC(=O)C1=C(CN2CCC[C@@H]2C(=O)Nc2cccc(B(O)O)c2)NC(c2nccs2)=N[C@H]1c1ccc(F)cc1Br	Hepatitis B virus	HBV DNA level	HepAD38	6 days	38 nM
CC(C)[C@@H](C)Nc1nc(-c2cccs2)nc(Cl)c1-c1ccccc1F	Schistosoma mansoni	worm motility	adult worms ex vivo	24 h	590 nM
C[C@H](CCCC(C)(C)O)[C@H]1CC[C@H]2[C@@H]3CC=C4C[C@@H](O)CC[C@]4(C)[C@H]3CC[C@]12C	Human rotavirus	–	MA104, DS-1	–	270 nM
CC(C)[C@@H](C)Nc1nc(-c2cccs2)nc(Cl)c1-c1c(F)cc(O)cc1F	Schistosoma mansoni	worm motility	adult worms ex vivo	24 h	650 nM
CCOC(=O)C1=C(CN2CCC[C@@H]2C(=O)Nc2ccc(B(O)O)cc2)NC(c2nccs2)=N[C@H]1c1ccc(F)cc1Br	Hepatitis B virus	HBV DNA level	HepAD38	6 days	1 nM

A few entries again:
SMILES	organism	assay	test system	setting	EC50
C[C@@H](CO)CCC[C@@H](C)[C@H]1CC[C@H]2[C@@H]3CC=C4C[C@@H](O)CC[C@]4(C)[C@H]3CC[C@]12C	Human rotavirus	–	Caco-2, DS-1	–	450 nM
